Assay results from different studies.
Each line is one published result; not all experiments were run side by side.
Matrix: plasma

| Structure (SMILES) | test system | conditions | how to read | endpoint | result |
| --- | --- | --- | --- | --- | --- |
| CCc1c2c(nc3ccc(O)cc13)-c1cc3c(c(=O)n1C2)COC(=O)[C@]3(O)CC | human patients | intravenous, 32 mg/m^2 of parent drug |  | AUC(0-inf) | 528 ng·h/mL |
| NC(=O)/C=C/c1cccc(S(=O)(=O)Nc2ccccc2)c1 | human, normal liver function | intravenous, 400 mg/m^2 belinostat, cycle 1 day -7, geometric mean | reference: metabolite over belinostat | AUC(0-inf) metabolic ratio | 0.901 |
| [2H]C([2H])([2H])Oc1cc2c(cc1OC([2H])([2H])[2H])[C@H]1CC(=O)[C@H](CC(C)(C)O)CN1CC2 | healthy human male | oral, 25 mg, geometric mean |  | AUC(0-inf) metabolite share of plasma radioactivity | 5.1% |
| CC(C)(O)c1ncc([S@](N)(=O)=NC(=O)Nc2c3c(cc4c2CCC4)CCC3)s1 | healthy human fasted | oral, 100 mg single dose, spray-dried dispersion |  | AUC(0-inf) | 99400 ng·h/mL |
| O=C(O)/C=C/c1cccc(S(=O)(=O)Nc2ccccc2)c1 | human, severe liver dysfunction | intravenous, 400 mg/m^2 belinostat, cycle 1 day -7, geometric mean | reference: metabolite over belinostat | AUC(0-inf) metabolic ratio | 0.611 |
| [2H]C([2H])([2H])Oc1cc2c(cc1OC([2H])([2H])[2H])[C@H]1C[C@H](O)[C@H](CC(C)C(=O)O)CN1CC2 (stereo partly drawn) | healthy human male | oral, 25 mg, geometric mean |  | AUC(0-inf) metabolite share of plasma radioactivity | 9% |
| CONC(=O)/C=C/c1cccc(S(=O)(=O)Nc2ccccc2)c1 | human, severe liver dysfunction | intravenous, 400 mg/m^2 belinostat, cycle 1 day -7, geometric mean | reference: metabolite over belinostat | AUC(0-inf) metabolic ratio | 0.759 |
| CCCCCCCCCCCCCCCC(=O)N[C@@H](CCC(=O)NCCCC[C@H](NC(=O)[C@H](C)NC(=O)[C@H](C)NC(=O)[C@H](CCC(N)=O)NC(=O)CNC(=O)[C@H](CCC(=O)O)NC(=O)[C@H](CC(C)C)NC(=O)[C@H](Cc1ccc(O)cc1)NC(=O)[C@H](CO)NC(=O)[C@H](CO)NC(=O)[C@@H](NC(=O)[C@H](CC(=O)O)NC(=O)[C@H](CO)NC(=O)[C@@H](NC(=O)[C@H](Cc1ccccc1)NC(=O)[C@@H](NC(=O)CNC(=O)[C@H](CCC(=O)O)NC(=O)[C@H](C)NC(=O)[C@@H](N)Cc1cnc[nH]1)[C@@H](C)O)[C@@H](C)O)C(C)C)C(=O)N[C@@H](CCC(=O)O)C(=O)N[C@@H](Cc1ccccc1)C(=O)N[C@H](C(=O)N[C@@H](C)C(=O)N[C@@H](Cc1c[nH]c2ccccc12)C(=O)N[C@@H](CC(C)C)C(=O)N[C@H](C(=O)N[C@@H](CCCNC(=N)N)C(=O)NCC(=O)N[C@@H](CCCNC(=N)N)C(=O)NCC(=O)O)C(C)C)[C@@H](C)CC)C(=O)O | healthy humans | concentration not given | reference: compound over Victoza | AUC(0-inf) ratio | 111% |
| Cn1c(=O)oc2ccc(-c3ccc(CC(C#N)NC(=O)C4CNCCCO4)c(F)c3)cc21 (stereo not drawn) | human volunteers | 60 mg single dose, fasted, geometric mean |  | AUC(0-inf) | 5680 ng·h/mL |

Some of these lines once more:
| Structure (SMILES) | test system | conditions | how to read | endpoint | result |
| --- | --- | --- | --- | --- | --- |
| CCc1c2c(nc3ccc(O)cc13)-c1cc3c(c(=O)n1C2)COC(=O)[C@]3(O)CC | human patients | intravenous, 32 mg/m^2 of parent drug |  | AUC(0-inf) | 528 ng·h/mL |
